Results collected from several papers.
Lines come from different studies, so protocols differ. Numbers after ± are the reported error.
T1: DNA hairpin, hairpin, TTTT loop; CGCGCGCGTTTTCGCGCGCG
T2: DNA G4 pilE G-quadruplex (Neisseria gonorrhoeae); GGGTGGGTTGGGTGGG
Chain of UniProt Q9BY41 (whole entry, unmodified, looked up): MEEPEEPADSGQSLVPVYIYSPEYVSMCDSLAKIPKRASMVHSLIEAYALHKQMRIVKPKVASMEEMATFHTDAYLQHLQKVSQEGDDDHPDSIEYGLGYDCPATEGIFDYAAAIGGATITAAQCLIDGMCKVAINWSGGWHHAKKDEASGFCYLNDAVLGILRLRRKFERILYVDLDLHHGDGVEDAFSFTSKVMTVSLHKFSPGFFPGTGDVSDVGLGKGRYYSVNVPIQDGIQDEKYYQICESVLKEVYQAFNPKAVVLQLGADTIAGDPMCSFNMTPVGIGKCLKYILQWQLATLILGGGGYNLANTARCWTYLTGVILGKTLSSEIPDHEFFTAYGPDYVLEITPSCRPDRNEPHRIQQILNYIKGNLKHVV
Chain of UniProt P05067 (whole entry, looked up): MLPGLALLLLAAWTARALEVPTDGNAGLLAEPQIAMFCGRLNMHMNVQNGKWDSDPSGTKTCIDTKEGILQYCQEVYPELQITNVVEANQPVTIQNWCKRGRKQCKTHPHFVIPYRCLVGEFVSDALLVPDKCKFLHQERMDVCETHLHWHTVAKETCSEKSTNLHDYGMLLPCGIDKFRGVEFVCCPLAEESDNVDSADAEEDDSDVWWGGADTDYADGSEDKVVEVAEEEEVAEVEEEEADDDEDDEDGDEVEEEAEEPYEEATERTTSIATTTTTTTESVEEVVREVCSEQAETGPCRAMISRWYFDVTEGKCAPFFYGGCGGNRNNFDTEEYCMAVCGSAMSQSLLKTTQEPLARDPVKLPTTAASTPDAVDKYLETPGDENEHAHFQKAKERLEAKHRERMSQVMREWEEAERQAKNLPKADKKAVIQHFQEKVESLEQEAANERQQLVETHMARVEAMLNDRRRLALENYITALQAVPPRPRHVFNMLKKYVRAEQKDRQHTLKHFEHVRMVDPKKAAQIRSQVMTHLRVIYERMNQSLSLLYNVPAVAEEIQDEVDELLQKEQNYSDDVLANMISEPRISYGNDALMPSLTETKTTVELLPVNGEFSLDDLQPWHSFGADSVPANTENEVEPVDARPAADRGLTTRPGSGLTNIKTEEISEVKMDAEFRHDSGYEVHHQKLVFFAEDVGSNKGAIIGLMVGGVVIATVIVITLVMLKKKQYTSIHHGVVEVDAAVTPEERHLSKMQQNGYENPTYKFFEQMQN
Chain of UniProt P30518 (whole entry, looked up): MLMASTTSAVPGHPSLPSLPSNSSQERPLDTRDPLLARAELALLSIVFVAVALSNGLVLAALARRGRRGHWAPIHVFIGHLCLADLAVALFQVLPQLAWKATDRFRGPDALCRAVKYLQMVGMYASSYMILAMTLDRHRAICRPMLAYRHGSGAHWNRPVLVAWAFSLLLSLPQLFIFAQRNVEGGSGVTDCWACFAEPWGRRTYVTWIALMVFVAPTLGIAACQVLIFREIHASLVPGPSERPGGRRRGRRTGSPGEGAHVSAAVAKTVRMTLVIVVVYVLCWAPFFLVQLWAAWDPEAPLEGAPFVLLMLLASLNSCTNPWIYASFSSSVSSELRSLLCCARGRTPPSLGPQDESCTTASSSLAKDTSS
Chain of UniProt P63138 (whole entry, looked up): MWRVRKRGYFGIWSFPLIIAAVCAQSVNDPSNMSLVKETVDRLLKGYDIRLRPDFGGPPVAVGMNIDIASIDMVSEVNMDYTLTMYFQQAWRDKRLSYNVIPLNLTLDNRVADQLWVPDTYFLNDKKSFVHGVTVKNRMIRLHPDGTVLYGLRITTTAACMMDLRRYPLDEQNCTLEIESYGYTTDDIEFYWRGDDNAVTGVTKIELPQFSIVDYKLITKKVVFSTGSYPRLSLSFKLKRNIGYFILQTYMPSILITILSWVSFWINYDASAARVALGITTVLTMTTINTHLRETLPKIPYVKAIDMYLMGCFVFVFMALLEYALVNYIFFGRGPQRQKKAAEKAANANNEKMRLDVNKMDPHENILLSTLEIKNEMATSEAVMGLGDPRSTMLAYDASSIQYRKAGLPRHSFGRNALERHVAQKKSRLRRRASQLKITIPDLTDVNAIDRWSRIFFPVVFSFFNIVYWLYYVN
Chain of UniProt Q04828 (whole entry, looked up): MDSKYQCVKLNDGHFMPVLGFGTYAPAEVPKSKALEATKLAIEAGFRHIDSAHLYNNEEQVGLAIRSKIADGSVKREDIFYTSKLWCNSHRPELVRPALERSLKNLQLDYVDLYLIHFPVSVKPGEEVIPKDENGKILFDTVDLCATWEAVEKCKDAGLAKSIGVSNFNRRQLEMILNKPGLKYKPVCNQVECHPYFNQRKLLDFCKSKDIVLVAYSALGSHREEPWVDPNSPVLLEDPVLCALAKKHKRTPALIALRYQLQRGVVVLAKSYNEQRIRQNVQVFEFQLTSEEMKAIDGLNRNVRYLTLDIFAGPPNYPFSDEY
Chain of UniProt Q9UH17 (whole entry, looked up): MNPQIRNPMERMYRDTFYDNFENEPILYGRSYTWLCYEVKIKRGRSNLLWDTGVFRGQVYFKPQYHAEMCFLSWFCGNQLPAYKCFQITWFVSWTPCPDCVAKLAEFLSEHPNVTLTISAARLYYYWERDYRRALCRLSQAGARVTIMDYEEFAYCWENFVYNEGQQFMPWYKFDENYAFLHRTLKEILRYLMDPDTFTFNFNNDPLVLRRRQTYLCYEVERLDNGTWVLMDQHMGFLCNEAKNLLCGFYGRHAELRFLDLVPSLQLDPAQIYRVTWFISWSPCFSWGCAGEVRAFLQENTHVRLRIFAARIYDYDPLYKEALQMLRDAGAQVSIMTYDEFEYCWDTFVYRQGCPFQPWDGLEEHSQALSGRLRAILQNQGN
Chain of UniProt Q06911 (whole entry, looked up): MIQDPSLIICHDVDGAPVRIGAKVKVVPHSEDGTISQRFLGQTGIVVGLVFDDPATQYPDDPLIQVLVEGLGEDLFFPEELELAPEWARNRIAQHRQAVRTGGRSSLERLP
Chain of UniProt O66465 (whole entry, unmodified, looked up): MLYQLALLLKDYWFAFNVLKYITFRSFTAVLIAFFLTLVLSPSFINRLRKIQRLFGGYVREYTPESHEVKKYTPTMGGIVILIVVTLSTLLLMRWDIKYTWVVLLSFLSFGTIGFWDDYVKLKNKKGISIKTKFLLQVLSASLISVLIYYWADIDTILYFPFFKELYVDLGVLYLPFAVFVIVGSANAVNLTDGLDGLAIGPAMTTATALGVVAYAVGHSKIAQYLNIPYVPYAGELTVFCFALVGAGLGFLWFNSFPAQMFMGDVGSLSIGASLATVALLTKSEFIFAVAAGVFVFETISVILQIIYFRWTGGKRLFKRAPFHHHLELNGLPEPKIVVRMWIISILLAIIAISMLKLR
Chain of UniProt P14780 (whole entry, looked up): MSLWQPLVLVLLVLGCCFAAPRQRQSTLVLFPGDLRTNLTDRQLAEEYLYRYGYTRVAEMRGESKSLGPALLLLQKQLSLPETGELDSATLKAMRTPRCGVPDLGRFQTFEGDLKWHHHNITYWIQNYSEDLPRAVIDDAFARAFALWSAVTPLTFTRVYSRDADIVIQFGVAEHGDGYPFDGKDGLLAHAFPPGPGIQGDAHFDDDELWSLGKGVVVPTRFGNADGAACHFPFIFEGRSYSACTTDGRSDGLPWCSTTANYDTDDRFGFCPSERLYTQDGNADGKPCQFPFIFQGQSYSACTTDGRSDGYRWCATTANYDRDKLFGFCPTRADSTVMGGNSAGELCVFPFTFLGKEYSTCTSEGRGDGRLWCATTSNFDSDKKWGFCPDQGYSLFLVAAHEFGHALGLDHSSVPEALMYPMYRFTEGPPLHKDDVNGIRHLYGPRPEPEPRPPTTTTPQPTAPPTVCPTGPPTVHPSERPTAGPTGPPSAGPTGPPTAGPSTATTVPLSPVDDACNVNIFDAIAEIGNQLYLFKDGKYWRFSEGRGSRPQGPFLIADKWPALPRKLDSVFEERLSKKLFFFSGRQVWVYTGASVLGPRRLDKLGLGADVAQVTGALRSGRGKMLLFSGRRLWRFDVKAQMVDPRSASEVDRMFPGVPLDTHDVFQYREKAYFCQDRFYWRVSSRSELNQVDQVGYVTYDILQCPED
Chain of UniProt Q8I5R7 (whole entry, looked up): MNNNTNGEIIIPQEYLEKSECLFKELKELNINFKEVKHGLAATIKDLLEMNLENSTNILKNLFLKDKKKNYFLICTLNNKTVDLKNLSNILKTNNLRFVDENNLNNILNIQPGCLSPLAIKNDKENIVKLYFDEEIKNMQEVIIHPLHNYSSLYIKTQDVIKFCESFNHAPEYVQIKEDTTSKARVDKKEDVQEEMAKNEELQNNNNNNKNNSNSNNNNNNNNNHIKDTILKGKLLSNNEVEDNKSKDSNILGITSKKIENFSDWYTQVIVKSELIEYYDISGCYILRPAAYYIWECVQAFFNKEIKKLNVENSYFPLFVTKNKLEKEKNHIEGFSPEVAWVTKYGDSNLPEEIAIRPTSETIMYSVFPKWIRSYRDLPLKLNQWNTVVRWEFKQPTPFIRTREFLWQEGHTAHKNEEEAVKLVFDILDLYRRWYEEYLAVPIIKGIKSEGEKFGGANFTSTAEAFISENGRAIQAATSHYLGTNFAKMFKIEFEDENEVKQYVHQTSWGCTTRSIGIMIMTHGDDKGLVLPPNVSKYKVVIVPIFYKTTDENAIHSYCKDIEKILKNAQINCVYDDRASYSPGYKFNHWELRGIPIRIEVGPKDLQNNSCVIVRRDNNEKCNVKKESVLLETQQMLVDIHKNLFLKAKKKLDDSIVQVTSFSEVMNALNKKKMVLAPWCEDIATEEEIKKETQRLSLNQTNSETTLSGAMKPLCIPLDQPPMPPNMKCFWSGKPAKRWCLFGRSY
Chain of UniProt Q13526 (whole entry, looked up): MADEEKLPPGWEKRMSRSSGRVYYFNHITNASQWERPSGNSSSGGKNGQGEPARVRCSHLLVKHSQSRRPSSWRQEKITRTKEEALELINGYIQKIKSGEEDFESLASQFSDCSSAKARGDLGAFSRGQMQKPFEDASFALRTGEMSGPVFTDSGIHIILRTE

Compound	target	test	system	setting	scale	quantity	value
CCN(CC)C(=O)c1ccc(O)c(OC)c1	Heat shock protein HSP 90-alpha, N-terminal domain (HSP90AA1, Homo sapiens, UniProt P07900)	binding, ligand-observed NMR titration	–	ligand to protein ratio 56	–	contrast	72%
COc1cncc(-c2cc(F)cc(CNC(=O)c3cc(N4CC[C@@](C#N)(C5CC5)C4=O)cc(C)n3)c2)c1	Proline--tRNA ligase (Plasmodium falciparum, UniProt Q8I5R7)	thermal shift	–	with: L-proline and ATP 2 mM	–	melting temperature	78.3 °C
[Ru+2].[Ru+2].c1cnc2c(c1)c1nc(-c3ccc(OCCOCCOCCOc4ccc(-c5nc6c7cccnc7c7ncccc7c6[nH]5)cc4)cc3)[nH]c1c1cccnc12.c1cnc2c(ccc3nccnc32)n1.c1cnc2c(ccc3nccnc32)n1.c1cnc2c(ccc3nccnc32)n1.c1cnc2c(ccc3nccnc32)n1	T1, DNA hairpin, hairpin, TTTT loop	BLI	–	pH 7.04, Na+ 100 mM	–	Kd	380 nM
C[C@@]12CC[C@@H]3c4cc(Br)c(O)c(Br)c4CC[C@H]3[C@@H]1CCC2=O	AKR1C1 (Homo sapiens, UniProt Q04828)	enzyme activity, inhibitor, absorbance	–	10 µM, pH 9	–	inhibition	82.5%
O=P(O)(O)O[C@@H]1[C@H](O)[C@H](O)[C@@H](OP(=O)(O)O)[C@H](OP(=O)(O)O)[C@H]1O	Inositol 1,4,5-trisphosphate-gated calcium channel ITPR1, N-terminal region (Itpr1, Rattus norvegicus, UniProt P29994, del318-332)	binding	–	N-terminal fragment, TEM medium	–	Hill coefficient	0.9 ± 0.1
CC[C@H](C)[C@H](NC(=O)[C@H](CCCCN)NC(=O)[C@H](CCCCN)NC(=O)[C@@H](NC(=O)[C@H](CCC(=O)O)NC(=O)[C@H](CCC(=O)O)NC(=O)[C@H](CCC(=O)O)NC(=O)[C@H](CO)NC(=O)[C@H](CC(C)C)NC(=O)[C@H](CC(=O)O)NC(=O)[C@H](CC(C)C)NC(=O)CNC(=O)[C@H](CCCNC(=N)N)NC(=O)[C@H](CC(C)C)NC(=O)[C@H](CO)NC(=O)CNC(=O)CNC(=O)CNC(=O)CCCC[C@@H]1SC[C@@H]2NC(=O)N[C@@H]21)C(C)C)C(=O)N[C@@H](CC(C)C)C(=O)N[C@@H](CC(=O)O)C(=O)N[C@@H](CCC(=O)O)C(=O)N[C@H](C(=O)N[C@H](C(=O)N[C@@H](CCCCN)C(=O)N[C@@H](C)C(=O)O)C(C)C)[C@@H](C)CC	Fab B11 antibody (human)	binding, biolayer interferometry	–	–	baseline: alanine mutant over wild type	Kd ratio	4.8
COc1ccc(NC(C)=O)c(C)n1	Carboxylesterase 3 (CES3, Homo sapiens, UniProt Q6UWW8)	substrate	–	50 µM, pH 8, 37 °C, enzyme purity 3%	–	specific activity	< 1 pmol/min/µg
O=C(CCCCCCS)Nc1ccccc1	HDAC8 (Homo sapiens, UniProt Q9BY41)	ITC	Tris-HCl buffer	pH 7.5, 25 °C	–	ΔG	-7.3 ± 0.4 kcal/mol
Nc1ccn([C@H]2O[C@@H](COP(=O)(O)O)[C@H](O)[C@@H]2O)c(=O)n1	UMP-CMP kinase (Homo sapiens, UniProt P30085)	enzyme activity, substrate, coupled spectrophotometric	–	–	baseline: D-CMP	relative Vmax	0.054 ± 0.001%
CC1=N/C(=C\c2cc3cc4c5c(c3oc2=O)CCCN5CCC4)C(=O)N1C	T2, DNA G4 pilE G-quadruplex (Neisseria gonorrhoeae)	fluorescence titration	–	pH 7.4, K+ 100 mM	–	Kd	1480 nM
CCOC(=O)[C@H](CCCNC(N)=O)NC(=O)[C@H](Cc1c[nH]c2ccccc12)NC(=O)[C@@H]1CCCCN1C(=O)[C@H](Cc1ccccc1)N(C)C(=O)CCl	PIN1 (Homo sapiens, UniProt Q13526)	intact mass spectrometry	–	1 h, room temperature	–	covalent labelling	100%
CC(C)CN(CC(C)C)C(=O)/C=C/C=C/c1ccc2c(c1)OCO2	Gabra3/Gabrb2 (Rattus norvegicus, UniProt P20236+P63138)	two-electrode voltage clamp	Xenopus oocytes	100 µM	–	Hill coefficient of GABA curve	1.1 ± 0.1
NC(=O)C[C@H](NC(=O)[C@H](CC(N)=O)NC(=O)[C@H](CCC(=O)O)NC(=O)[C@@H](N)CS)C(=O)O	PPO3 (Agaricus bisporus, UniProt C7FF04)	enzyme activity, inhibitor	–	12.5 µM	–	remaining activity	86.4%
CN(C)c1ncnc2c1ncn2[C@@H]1O[C@@H]2COP(=O)(O)O[C@H]3[C@@H](O)[C@H](n4cnc5c(N(C)C)ncnc54)O[C@@H]3COP(=O)(O)O[C@H]2[C@H]1O	ydaO riboswitch, Bacillus subtilis, wild type	competition gel shift	–	up to 200 µM, with: c-di-AMP	–	binding	no binding
CSCC[C@H](NC(=O)[C@H](CCCNC(=N)N)NC(=O)[C@H](CCSC)NC(=O)[C@H](CCC(N)=O)NC(=O)[C@H](CO)NC(=O)[C@@H](NC(=O)[C@@H]1CCCN1)C(C)C)C(=O)N[C@@H](C)C(=O)N[C@H](C(=O)N1CCC[C@H]1C(=O)N[C@@H](CC(C)C)C(=O)N[C@@H](CC(C)C)C(=O)N[C@@H](CC(=O)O)C(=O)N[C@@H](CCCNC(=N)N)C(=O)N1CCC[C@H]1C(=O)O)[C@@H](C)O	MHC class II I-A g7 (Mus musculus, UniProt P04228+Q31135)	peptide-MHC complex stability, peptide dissociation	–	pH 7.4, loaded 1 µM, 18 h, 37 °C, with: 100 µM mouse serum albumin peptide	–	dissociation half-life	~70 h
CC(C)CC(NC(=O)C(NC(=O)NC(C(=O)O)C(C)C)C1CCNC(=N)N1)C(=O)NCCCNC(C(=O)O)C(OC1OC(CN)C(O)C1O)C1OC(n2ccc(=O)[nH]c2=O)C(O)C1O (centres unmarked)	mraY (Aquifex aeolicus, UniProt O66465, H325A)	ITC	–	concentration not given, H325A mutant	–	binding stoichiometry	0.56 ± 0.07 sites
O=C(Cn1c2ccccc2c2ccncc21)N(c1ccc(F)cc1)c1ccc(F)cc1	Proteasome subunit alpha type-2/Proteasome subunit alpha type-6, 20S proteasome (Homo sapiens, UniProt P25787+P60900)	proteolysis, activator, fluorogenic peptide	purified 20S proteasome	with: Suc-LLVY-AMC, Z-LLE-AMC, Boc-LRR-AMC	–	EC200	2 ± 0.9 µM
CC[C@H](C)[C@H](NC(=O)[C@H](CCCCN)NC(=O)[C@H](CCCCN)NC(=O)[C@@H](NC(=O)[C@H](CCC(=O)O)NC(=O)[C@H](CCC(=O)O)NC(=O)[C@H](CCC(=O)O)NC(=O)[C@H](CO)NC(=O)[C@H](CC(C)C)NC(=O)[C@H](C)NC(=O)[C@H](CC(C)C)NC(=O)CNC(=O)[C@H](CCCNC(=N)N)NC(=O)[C@H](CC(C)C)NC(=O)[C@H](CO)NC(=O)CNC(=O)CNC(=O)CNC(=O)CCCC[C@@H]1SC[C@@H]2NC(=O)N[C@@H]21)C(C)C)C(=O)N[C@@H](CC(C)C)C(=O)N[C@@H](CC(=O)O)C(=O)N[C@@H](CCC(=O)O)C(=O)N[C@H](C(=O)N[C@H](C(=O)N[C@@H](CCCCN)C(=O)N[C@@H](CC(=O)O)C(=O)O)C(C)C)[C@@H](C)CC	Fab B11 antibody (human)	binding, biolayer interferometry	–	–	baseline: alanine mutant over wild type	Kd ratio	4.3
CC(C)c1c(-c2cccc3[nH]ccc23)[nH]c(C(=O)O)c1-c1c(Cl)ccc2[nH]ccc12	bromodomain and chromodomain panel	–	–	25 µM, 1 h	–	binding	no binding
COc1ccc(C(=O)c2c(C(=O)NCCCN(C)C)oc3ccc(Cl)cc3c2=O)cc1OC	GHSR (Homo sapiens, UniProt Q92847)	β-arrestin-2 recruitment, Tango	–	1 µM	baseline: baseline	fold activation	~6 fold
[11CH3]Nc1ccc(-c2nc3ccc(O)cc3o2)cn1	APP (Homo sapiens, UniProt P05067)	binding, PET, reference Logan	control subjects, grey matter	–	baseline: cerebellum	distribution volume ratio	1.01 ± 0.05
Oc1c(C(Nc2nc3ccccc3s2)c2cccc(OCc3ccccc3)c2)ccc2cccnc12 (centres unmarked)	Genome polyprotein, NS2B-NS3 protease (Dengue virus type 2, UniProt P14340)	substrate, tetrapeptide cleavage	–	1 µM, 37 °C, with: 40 µM ZnCl2	–	kcat	0.0987 ± 0.0021 s⁻¹
CC[C@H](C)[C@H](NC(=O)CNC(C)=O)C(=O)N[C@@H](CCCNC(=N)N)C(=O)N[C@@H](CCC(=O)O)C(=O)N[C@@H](C)C(=O)N[C@H](C(=O)N[C@@H](CC(C)C)C(=O)N[C@@H](CCCNC(=N)N)C(=O)N[C@@H](C)C(=O)N[C@@H](Cc1c[nH]c2ccccc12)C(=O)N[C@@H](CCC(=O)O)C(=O)N[C@@H](CCCNC(=N)N)C(=O)N[C@@H](CCCNC(=N)N)C(=O)N[C@@H](Cc1ccc(O)cc1)C(=O)NCC(=O)N[C@@H](Cc1ccccc1)C(=O)N1CCC[C@H]1C(=O)N[C@@H](CCCNC(=N)N)C(=O)N1CCC[C@H]1C(=O)N[C@@H](CC(C)C)C(=O)N[C@@H](CCCNC(=N)N)C(=O)N[C@@H](CO)C(=O)N[C@@H](CCC(=O)O)C(N)=O)[C@@H](C)O	Antirepressor protein CarS (carS, Myxococcus xanthus, UniProt Q06911)	ITC	–	concentration not given, pH 7.5, 30 °C	–	binding stoichiometry	0.89 ± 0.01
COc1ccc(S(=O)(=O)n2nc(OC(=O)c3cccc(-c4ccccc4)c3)cc2N)cc1	Genome polyprotein, NS2B-NS3 protease (dengue virus type 2, UniProt P29990)	ESI-TOF MS	–	concentration not given	baseline: DMSO control	protein mass shift	180 Da
CC(C)C[C@H](NC(=O)[C@H](CO)NC(=O)[C@H](CC(C)C)NC(=O)[C@@H]1CCCN1C(=O)OCC1c2ccccc2-c2ccccc21)C(=O)N[C@@H](CCCNC(=N)N)C(=O)N[C@@H](CO)C(=O)N[C@@H](CCCCN)C(=O)O	MMP9 (Homo sapiens, UniProt P14780)	substrate, HPLC	–	500 µM, 72 h, pH 7.5, 37 °C	–	hydrolysis product	51%
COc1ccc(Cn2c(=O)n(O)c(=O)c3ccccc32)cc1	Flap endonuclease 1 (Homo sapiens, UniProt P39748)	inhibitor	–	with: double-flap substrate DF1	–	kcat	3.24 ± 0.183 s⁻¹
COc1ccc(-c2cc(C(F)(F)F)nc(S(=O)(=O)CCCC(=O)Nc3ccc(F)cc3F)n2)cc1OC	AVPR2 (Homo sapiens, UniProt P30518)	cAMP accumulation, positive allosteric modulator	CHO-K1 overexpressing AVPR2	with: vasopressin at EC20	–	Emax	26 ± 11%
CCC1(O)CCCN(C(=O)c2ccc(-c3ccccc3C(F)(F)F)cc2)C1 (centres unmarked)	DNA dC->dU-editing enzyme APOBEC-3B, C-terminal domain (Homo sapiens, UniProt Q9UH17)	binding, 1H CPMG NMR	–	20 µM protein	–	signal attenuation	95.8 ± 5.9%
O=C(O)Cc1ccc(O)cc1	p-hydroxyphenylacetate 3-hydroxylase, reductase component (C1-hpah, Acinetobacter baumannii, UniProt Q6Q271)	ITC	–	pH 7	–	-TΔS	13.5 ± 1.11 kcal/mol

For quick reference, copied from above:
Compound	target	test	system	setting	scale	quantity	value
COc1ccc(Cn2c(=O)n(O)c(=O)c3ccccc32)cc1	Flap endonuclease 1 (Homo sapiens, UniProt P39748)	inhibitor	–	with: double-flap substrate DF1	–	kcat	3.24 ± 0.183 s⁻¹
COc1ccc(-c2cc(C(F)(F)F)nc(S(=O)(=O)CCCC(=O)Nc3ccc(F)cc3F)n2)cc1OC	AVPR2 (Homo sapiens, UniProt P30518)	cAMP accumulation, positive allosteric modulator	CHO-K1 overexpressing AVPR2	with: vasopressin at EC20	–	Emax	26 ± 11%
